# Published values gathered from unrelated publications.
# Each line is one published result; not all experiments were run side by side. Several values in a cell are separate wells, animals, samples, runs or records. ± marks the error that the study gave.
# Uncharacterized hydrolase SAUSA300_2518: Uncharacterized hydrolase SAUSA300_2518 (Staphylococcus aureus, UniProt Q2FDS6)
# UniProt Q2FDS6, sequence (whole entry, looked up): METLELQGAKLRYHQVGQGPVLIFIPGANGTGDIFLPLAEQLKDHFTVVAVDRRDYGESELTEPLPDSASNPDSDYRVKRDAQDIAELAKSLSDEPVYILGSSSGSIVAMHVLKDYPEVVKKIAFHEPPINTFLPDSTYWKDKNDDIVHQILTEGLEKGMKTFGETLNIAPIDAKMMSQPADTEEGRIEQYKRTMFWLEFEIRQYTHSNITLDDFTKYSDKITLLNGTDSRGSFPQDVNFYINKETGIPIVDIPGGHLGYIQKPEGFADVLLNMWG
# lasR: Transcriptional activator protein LasR (lasR, Pseudomonas aeruginosa, UniProt P25084)
# UniProt P25084, sequence (whole entry, looked up): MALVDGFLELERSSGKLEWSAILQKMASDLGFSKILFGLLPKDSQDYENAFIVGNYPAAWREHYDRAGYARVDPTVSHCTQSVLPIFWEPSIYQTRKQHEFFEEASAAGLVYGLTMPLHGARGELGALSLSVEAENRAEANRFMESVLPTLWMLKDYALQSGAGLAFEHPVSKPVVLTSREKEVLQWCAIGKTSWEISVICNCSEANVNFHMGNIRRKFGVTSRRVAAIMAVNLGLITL
# STK3: Serine/threonine-protein kinase 3 (STK3, Homo sapiens, UniProt Q13188)
# UniProt Q13188, sequence (whole entry, looked up): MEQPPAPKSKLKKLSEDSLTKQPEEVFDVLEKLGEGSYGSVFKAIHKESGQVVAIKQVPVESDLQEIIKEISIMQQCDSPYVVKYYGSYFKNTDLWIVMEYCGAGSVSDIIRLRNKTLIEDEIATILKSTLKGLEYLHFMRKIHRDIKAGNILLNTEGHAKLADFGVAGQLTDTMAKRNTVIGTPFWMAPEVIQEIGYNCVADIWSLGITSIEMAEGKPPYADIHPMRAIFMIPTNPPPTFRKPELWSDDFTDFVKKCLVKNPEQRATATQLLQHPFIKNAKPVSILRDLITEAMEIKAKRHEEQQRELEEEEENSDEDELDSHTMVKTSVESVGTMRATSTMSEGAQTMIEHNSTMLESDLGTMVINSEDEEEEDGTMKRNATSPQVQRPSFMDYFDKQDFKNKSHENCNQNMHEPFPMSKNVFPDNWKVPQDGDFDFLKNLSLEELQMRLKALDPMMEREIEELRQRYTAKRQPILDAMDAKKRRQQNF
# UniProt P78417, sequence (whole entry, looked up): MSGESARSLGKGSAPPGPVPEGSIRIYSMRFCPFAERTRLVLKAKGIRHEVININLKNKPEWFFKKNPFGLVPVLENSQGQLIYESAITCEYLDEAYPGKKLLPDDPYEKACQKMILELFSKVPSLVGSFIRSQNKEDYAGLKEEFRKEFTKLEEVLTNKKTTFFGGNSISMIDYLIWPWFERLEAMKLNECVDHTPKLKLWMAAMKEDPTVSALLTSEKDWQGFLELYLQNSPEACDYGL
# UniProt P43403, sequence (whole entry, looked up): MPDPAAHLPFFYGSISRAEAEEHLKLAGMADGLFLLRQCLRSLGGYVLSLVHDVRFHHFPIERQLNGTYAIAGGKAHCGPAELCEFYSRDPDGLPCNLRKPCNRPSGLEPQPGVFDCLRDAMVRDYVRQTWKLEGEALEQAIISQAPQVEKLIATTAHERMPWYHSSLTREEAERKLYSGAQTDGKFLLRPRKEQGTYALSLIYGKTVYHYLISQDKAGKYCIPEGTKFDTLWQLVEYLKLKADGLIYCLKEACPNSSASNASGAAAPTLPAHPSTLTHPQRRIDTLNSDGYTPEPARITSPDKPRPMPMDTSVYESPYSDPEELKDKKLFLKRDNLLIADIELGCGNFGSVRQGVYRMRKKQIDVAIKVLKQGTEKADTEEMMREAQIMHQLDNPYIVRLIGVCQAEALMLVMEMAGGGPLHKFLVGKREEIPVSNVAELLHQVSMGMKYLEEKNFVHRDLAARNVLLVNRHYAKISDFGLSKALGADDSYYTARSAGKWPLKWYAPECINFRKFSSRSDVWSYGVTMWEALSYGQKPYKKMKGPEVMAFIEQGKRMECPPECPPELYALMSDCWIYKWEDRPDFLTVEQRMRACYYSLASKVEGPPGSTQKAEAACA
# UniProt P21709, sequence (whole entry, looked up): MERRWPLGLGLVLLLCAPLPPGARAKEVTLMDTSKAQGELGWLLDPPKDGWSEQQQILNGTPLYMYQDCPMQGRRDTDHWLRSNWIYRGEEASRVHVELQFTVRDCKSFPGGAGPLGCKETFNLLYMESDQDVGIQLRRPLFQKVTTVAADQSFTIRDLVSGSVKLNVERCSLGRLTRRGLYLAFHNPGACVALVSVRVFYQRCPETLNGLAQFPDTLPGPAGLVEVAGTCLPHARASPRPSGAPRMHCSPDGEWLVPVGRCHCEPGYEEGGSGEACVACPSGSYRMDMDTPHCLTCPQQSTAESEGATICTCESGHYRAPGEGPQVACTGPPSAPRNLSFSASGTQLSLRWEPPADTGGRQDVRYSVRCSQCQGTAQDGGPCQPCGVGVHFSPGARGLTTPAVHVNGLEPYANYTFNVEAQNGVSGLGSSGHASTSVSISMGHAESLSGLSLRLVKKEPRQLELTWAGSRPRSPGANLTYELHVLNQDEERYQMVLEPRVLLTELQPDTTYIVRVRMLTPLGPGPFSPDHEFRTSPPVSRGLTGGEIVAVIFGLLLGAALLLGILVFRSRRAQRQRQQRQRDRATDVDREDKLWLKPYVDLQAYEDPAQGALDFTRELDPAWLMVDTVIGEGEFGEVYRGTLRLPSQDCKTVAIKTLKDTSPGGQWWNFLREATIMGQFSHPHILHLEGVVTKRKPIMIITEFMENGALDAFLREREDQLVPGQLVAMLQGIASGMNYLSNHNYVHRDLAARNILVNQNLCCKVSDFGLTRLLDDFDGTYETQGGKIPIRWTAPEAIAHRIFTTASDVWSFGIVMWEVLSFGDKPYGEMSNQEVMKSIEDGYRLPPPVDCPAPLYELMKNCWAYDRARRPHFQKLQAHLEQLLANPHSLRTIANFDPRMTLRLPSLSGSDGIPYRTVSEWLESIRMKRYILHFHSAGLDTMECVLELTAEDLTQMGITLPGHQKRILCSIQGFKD
# UniProt P23443, sequence (whole entry, looked up): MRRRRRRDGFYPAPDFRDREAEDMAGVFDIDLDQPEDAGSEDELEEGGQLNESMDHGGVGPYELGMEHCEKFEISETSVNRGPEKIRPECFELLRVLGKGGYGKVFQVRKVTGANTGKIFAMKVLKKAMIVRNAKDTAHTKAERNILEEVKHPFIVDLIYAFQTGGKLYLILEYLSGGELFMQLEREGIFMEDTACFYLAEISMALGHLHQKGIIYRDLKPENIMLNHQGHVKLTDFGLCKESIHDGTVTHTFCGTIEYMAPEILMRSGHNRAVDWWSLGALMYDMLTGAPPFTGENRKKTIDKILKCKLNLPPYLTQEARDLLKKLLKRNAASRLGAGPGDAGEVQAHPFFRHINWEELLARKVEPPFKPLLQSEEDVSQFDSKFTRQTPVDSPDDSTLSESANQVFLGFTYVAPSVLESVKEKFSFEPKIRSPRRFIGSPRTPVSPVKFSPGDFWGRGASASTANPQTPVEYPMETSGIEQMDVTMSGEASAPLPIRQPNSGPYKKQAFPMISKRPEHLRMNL
# UniProt Q08499, sequence (whole entry, looked up): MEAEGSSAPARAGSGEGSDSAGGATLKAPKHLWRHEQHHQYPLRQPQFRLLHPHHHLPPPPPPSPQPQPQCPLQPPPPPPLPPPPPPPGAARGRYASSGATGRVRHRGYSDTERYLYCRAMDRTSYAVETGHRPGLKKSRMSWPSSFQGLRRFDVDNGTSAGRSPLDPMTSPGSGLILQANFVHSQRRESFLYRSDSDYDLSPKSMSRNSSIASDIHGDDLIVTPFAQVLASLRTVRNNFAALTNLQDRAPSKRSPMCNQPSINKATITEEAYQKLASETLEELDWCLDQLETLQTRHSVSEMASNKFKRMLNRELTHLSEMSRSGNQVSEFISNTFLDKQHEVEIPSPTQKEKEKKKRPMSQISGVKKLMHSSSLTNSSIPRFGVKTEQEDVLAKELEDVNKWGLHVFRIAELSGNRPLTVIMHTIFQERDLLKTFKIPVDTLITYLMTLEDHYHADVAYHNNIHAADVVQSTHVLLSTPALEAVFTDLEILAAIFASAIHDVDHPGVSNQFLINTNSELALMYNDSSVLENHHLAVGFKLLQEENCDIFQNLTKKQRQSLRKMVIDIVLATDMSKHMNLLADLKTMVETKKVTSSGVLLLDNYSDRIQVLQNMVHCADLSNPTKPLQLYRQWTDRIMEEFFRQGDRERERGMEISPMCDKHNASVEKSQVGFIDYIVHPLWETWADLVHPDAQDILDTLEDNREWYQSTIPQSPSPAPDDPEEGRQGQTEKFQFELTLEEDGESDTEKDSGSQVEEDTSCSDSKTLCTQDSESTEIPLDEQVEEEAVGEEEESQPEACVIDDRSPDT
# UniProt Q96SB4, sequence (whole entry, looked up): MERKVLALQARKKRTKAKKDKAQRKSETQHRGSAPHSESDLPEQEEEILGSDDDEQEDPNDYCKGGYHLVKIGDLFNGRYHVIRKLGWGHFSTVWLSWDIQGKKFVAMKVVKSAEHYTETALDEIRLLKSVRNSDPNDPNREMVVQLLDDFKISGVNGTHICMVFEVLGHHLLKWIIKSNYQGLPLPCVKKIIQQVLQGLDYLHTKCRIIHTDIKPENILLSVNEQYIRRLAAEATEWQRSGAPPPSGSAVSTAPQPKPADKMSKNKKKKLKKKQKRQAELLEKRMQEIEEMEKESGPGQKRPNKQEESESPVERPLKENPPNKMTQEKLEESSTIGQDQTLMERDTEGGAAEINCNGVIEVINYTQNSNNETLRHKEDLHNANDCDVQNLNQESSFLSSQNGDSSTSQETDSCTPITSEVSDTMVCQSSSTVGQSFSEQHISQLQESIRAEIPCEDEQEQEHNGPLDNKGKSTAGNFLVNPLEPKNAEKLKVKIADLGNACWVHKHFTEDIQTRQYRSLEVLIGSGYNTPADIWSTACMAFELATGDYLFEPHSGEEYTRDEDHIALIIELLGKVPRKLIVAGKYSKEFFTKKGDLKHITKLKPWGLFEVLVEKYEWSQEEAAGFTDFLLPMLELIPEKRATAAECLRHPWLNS
SMILES,target or system,test,test system,setting,scale,measurement,result
CC(O)CN.O=C(O)C(Cl)Cl,Eleusine indica,,,"15 mg/mL, 21 days, pre-emergence, greenhouse",,herbicidal inhibition,0%
Cc1cc(B2OC(C)(C)C(C)(C)O2)ccc1S(N)(=O)=O,Uncharacterized hydrolase SAUSA300_2518,"enzyme activity, inhibitor",,50 µM,,inhibition,92%
CCCCCCCCCC(=O)NC1CCCC1,lasR,"reporter gene, antagonist",Pseudomonas aeruginosa PAO-JP2,"100 µM, plasI-LVAgfp reporter, together with: OdDHL 150 nM",,inhibition,59%
N[C@H](C(=O)N1CCCC1)C1CCN(c2nccc3c(-c4ncc(Cl)cc4Cl)cccc23)CC1,"PDE3B (Homo sapiens, UniProt Q13370)","enzyme activity, inhibitor",,10 µM,,inhibition,1%
O=C(O)c1ccccc1/C=N/Nc1nc(-c2ccccc2Cl)cs1,"RPS6KB1 (Homo sapiens, UniProt P23443)","enzyme activity, inhibitor",,1 µM,,inhibition,-1.13%
COc1ccccc1-c1n[nH]c2nc(N[C@H]3CC[C@H](NS(=O)(=O)CC(C)C)CC3)ncc12,,"bead binding, competition bead pull-down, refers to: LINJ.26.2250",Leishmania donovani extract,10 µM,relative to: vehicle,relative abundance,1.13
COc1ccc(F)cc1S(=O)(=O)Nc1cnc2c(c1)C(=O)NCCO2,phosphodiesterase 4,"enzyme activity, inhibitor",,10 µM,,inhibition,1%
CCCCCC(=O)CC(=O)N[C@H]1CCOC1=O,lasR,"reporter gene, antagonist",Escherichia coli JLD271,"10 µM, pSC11 and pJN105L plasmids, together with: OdDHL 2 nM",,inhibition,-16%
Cc1cc(-c2ccc3ccccc3c2)nnc1NCCN1CCN(C)CC1,"Slc6a4 (Rattus norvegicus, UniProt P31652)","monoamine uptake, inhibitor",rat synaptosomes,10000 nM,,inhibition,94%
CN(C)[C@H]1C[C@@]23CC[C@@]4(O2)C(=CC[C@]2(C)[C@@H](c5ccc6ccncc6c5)CC[C@H]24)C=C3[C@@H](O)[C@@H]1O,"EPHA1 (Homo sapiens, UniProt P21709)","ATP probe labelling, inhibitor, KiNativ profiling",,0.1 µM,,inhibition,3.8%
COc1ccccc1-c1n[nH]c2nc(NC3CCN(C(=O)Cc4ccc(F)cc4F)CC3)ncc12,,"bead binding, competition bead pull-down, refers to: LINJ.31.0450",Leishmania donovani extract,10 µM,relative to: vehicle,relative abundance,0.92
CC(=O)NC[C@@H]1[C@@H](O)C[C@H]2[C@H](O)C[C@@H](CO)N12,β-N-acetylglucosaminidase,"enzyme activity, inhibitor, colorimetric",Canavalia ensiformis,"4.28 nM, together with: p-nitrophenyl GlcNAc substrate",,inhibition,26.8% and 24%
O=C(NCc1cc(Br)cc(Br)c1OC(=O)c1ccccc1[N+](=O)[O-])c1ccccc1Cl,lasR,"reporter gene, antagonist",Pseudomonas aeruginosa PAO-JP2,"100 µM, plasI-LVAgfp reporter, together with: OdDHL 150 nM",,inhibition,-71%
CCOC(=O)[C@](CC)(CCCSCCOCCOCCNC(=O)c1ccc(-c2c3ccc(=N)c(S(=O)(=O)O)c-3oc3c(S(=O)(=O)O)c(N)ccc23)c(C(=O)O)c1)NC(=O)c1ccc(C2CC2)c(Cc2ccc(F)cc2)n1,"ZAP70 (Homo sapiens, UniProt P43403)","ligand displacement, radioligand",,10 µM,,inhibition,35%
N#Cc1ccc(N2N=C3c4ccc(C(=O)O)cc4CCC3C2C2CCCC2)cc1Cl (stereo not drawn),"DNA (cytosine-5)-methyltransferase 3B, with DNMT3L (DNMT3B, Homo sapiens, UniProt Q9UBC3)",enzyme activity,,10 µM,,inhibition,1%
O=C(CN1CN(c2ccccc2)C2(CCN(C(=O)c3cnc4[nH]ncc4c3)CC2)C1=O)NCC(F)(F)F,"MAP3K12 (Homo sapiens, UniProt Q12852)",inhibitor,,concentration not given,,inhibition,< 50%
COc1cc2c(cc1S(=O)(=O)F)C(=O)NCCC2,Uncharacterized hydrolase SAUSA300_2518,"enzyme activity, inhibitor, fluorogenic substrate",,"50 µM, 1 h preincubation",,inhibition,8.6%
CC[C@@H]1C(=O)N(C)c2cnc(Nc3ccc(C(=O)NCCCC[C@H](NC(=O)[C@@H](NC(=O)[C@H](CO)NC(=O)[C@H](Cc4cncn4CCCCCCCCc4ccccc4)NC(=O)[C@H](CC(C)C)NC(=O)[C@@H]4CCCN4C(C)=O)[C@@H](C)CP(=O)(O)O)C(N)=O)cc3OC)nc2N1C1CCCC1,Caco-2,,,"10 µM, 2 h",,recovery B-A,67.1%
O=C1C=C(Br)/C(=C/Br)O1,lasR,"reporter gene, antagonist",Escherichia coli JLD271,"10 µM, pSC11 and pJN105L plasmids, together with: OdDHL 2 nM",,inhibition,51%
O=C1C[C@@H](c2ccc(O)cc2)Oc2cc(O)ccc21,"PDE4D (Homo sapiens, UniProt Q08499)","enzyme activity, inhibitor, radiometric",,50 µM,,inhibition,30.3%
C[C@H](NCc1ccc(-c2ccc(C(F)(F)F)cc2)cc1)C(N)=O,"RAF1 (Homo sapiens, UniProt P04049)","cell-free assay, competition with immobilised ligand",,1 µM,,inhibition,3%
CS(C)(=O)=Nc1ccc(-c2ccc(-c3nc4cc(O[C@@H]5CO[C@H]6[C@@H]5OC[C@H]6O)[nH]c4cc3F)cc2)cc1,"SRPK1 (Homo sapiens, UniProt Q96SB4)","enzyme activity, inhibitor",,10 µM,,inhibition,-6%
CN(/N=C/c1ccccc1C(=O)O)c1nc(-c2ccccc2Cl)cs1,"NEK1 (Homo sapiens, UniProt Q96PY6)","enzyme activity, inhibitor",,1 µM,,inhibition,3.78%
N=C(N)NCCC[C@@H]1NC(=O)[C@H](CCCCNC(=O)CCC(NC(=S)Nc2ccc(CC3CN(CC(=O)O)CCN(CC(=O)O)CCN(CC(=O)O)CCN3CC(=O)O)cc2)C(=O)NCCCC[C@@H]2NC(=O)[C@@H](Cc3ccc(O)cc3)NC(=O)[C@H](CC(=O)O)NC(=O)CNC(=O)[C@H](CCCNC(=N)N)NC2=O)NC(=O)[C@@H](Cc2ccc(O)cc2)NC(=O)[C@H](CC(=O)O)NC(=O)CNC1=O (stereo partly drawn) [scandium-44 labelled],,ex vivo γ-counting,"female athymic nude mice, U-87 MG xenograft, kidney","intravenous, 4 h, together with: cRGD 50 mg/kg blocking",,tissue uptake,1.29 ± 0.261 %ID/g
O=C1NC(=O)c2c1c1cc(F)c[n+]3c1c1c2c2cc(O)ccc2[n]1[Ru-4]312([N]=C=S)[S+]3CC[S+]1CC[S+]2CC3 (stereo not drawn),STK3,enzyme activity,,"100 nM, human enzyme, together with: 10 µM ATP",relative to: untreated,remaining activity,6%
Nc1ccc(/C=C/C(=O)N2CCc3c(oc4c(-c5ccc(F)cc5)cc(-c5ccc(C(=O)N6CCC(F)(F)CC6)cn5)cc34)C2)cn1,"FLT3 (Homo sapiens, UniProt P36888)","binding, competition with immobilised ligand",,1 µM,,remaining binding,100%
CC(C)[C@H]1NC(=O)C[C@H]2/C=C/CCSSC[C@@H](NC1=O)C(=O)N[C@H](Cc1cccc3ccccc13)C(=O)NCC(=O)O2,"EPHB2 (Homo sapiens, UniProt P29323)","enzyme activity, inhibitor",,10 µM,,inhibition,-0.8%
O=C1NC2(CC2)COc2ncc(F)cc2[C@H]2COCCN2c2ccn3ncc1c3n2,,,"Sprague-Dawley rat, female, blood","oral, 2.5 mg/kg/day, end of recovery, 4-week repeated-dose toxicity",relative to: red blood cells,reticulocytes,1.67 ± 0.86%
CC(C)(C)C(=O)OCOP(=O)(OCOC(=O)C(C)(C)C)C1CCCN(O)C1=O (stereo not drawn),SK-MEL-5,,,,,log GI50,-6.49 log M
Cc1cc(C(=O)Nc2nc3cccc(C)c3n2[C@H]2CCCCN(C(=O)/C=C/CN(C)C)C2)ccn1,Trypanosoma brucei,"propidium iodide flow cytometry, refers to: G1 phase",bloodstream CLK1 over-expression uninduced,concentration not given,,cell cycle distribution,15.3% and 14.8% and 20.9%
C=CC(=O)Nc1cc(-c2nn(C3CCC(N4CCN(C(C)=O)CC4)CC3)c3ncnc(N)c23)ccc1Oc1ccccc1 (stereo not drawn),STK3,"inhibitor, KiNativ profiling",biochemical,2 µM,,inhibition,8.2%
CC[C@H](C)[C@H](NC(=O)[C@H](CO)NC(=O)[C@H](Cc1ccc(O)cc1)NC(=O)[C@H](Cc1ccc(O)cc1)NC(=O)[C@H](CC(N)=O)NC(=O)CNC(=O)[C@H](CO)NC(=O)[C@H](Cc1ccc(O)cc1)NC(=O)[C@H](CO)NC(=O)[C@H](CO)NC(=O)[C@H](CC(N)=O)NC(=O)COCCOCCNC(=O)CN1CCN(CC(=O)O)CCN(CC(=O)O)CCN(CC(=O)O)CC1)C(=O)N[C@@H](CC(C)C)C(N)=O [copper-64 labelled],,dynamic PET,"KPC mouse Ptf1a-CreER tdTomato, metastases","intravenous, 4.6 MBq/mouse, 6.5 min, 84 d after tamoxifen",,tissue uptake,14.7 %ID/mL
O=C1C=CC(=Cc2c(-c3ccc(Cl)cc3)[nH]oc2=O)C=C1,"GSTO1 (Homo sapiens, UniProt P78417)",,,5 µM,,inhibition,92%

# A few entries again:
SMILES,target or system,test,test system,setting,scale,measurement,result
CC[C@H](C)[C@H](NC(=O)[C@H](CO)NC(=O)[C@H](Cc1ccc(O)cc1)NC(=O)[C@H](Cc1ccc(O)cc1)NC(=O)[C@H](CC(N)=O)NC(=O)CNC(=O)[C@H](CO)NC(=O)[C@H](Cc1ccc(O)cc1)NC(=O)[C@H](CO)NC(=O)[C@H](CO)NC(=O)[C@H](CC(N)=O)NC(=O)COCCOCCNC(=O)CN1CCN(CC(=O)O)CCN(CC(=O)O)CCN(CC(=O)O)CC1)C(=O)N[C@@H](CC(C)C)C(N)=O [copper-64 labelled],,dynamic PET,"KPC mouse Ptf1a-CreER tdTomato, metastases","intravenous, 4.6 MBq/mouse, 6.5 min, 84 d after tamoxifen",,tissue uptake,14.7 %ID/mL
N#Cc1ccc(N2N=C3c4ccc(C(=O)O)cc4CCC3C2C2CCCC2)cc1Cl (stereo not drawn),"DNA (cytosine-5)-methyltransferase 3B, with DNMT3L (DNMT3B, Homo sapiens, UniProt Q9UBC3)",enzyme activity,,10 µM,,inhibition,1%
O=C1C[C@@H](c2ccc(O)cc2)Oc2cc(O)ccc21,"PDE4D (Homo sapiens, UniProt Q08499)","enzyme activity, inhibitor, radiometric",,50 µM,,inhibition,30.3%
CC(C)(C)C(=O)OCOP(=O)(OCOC(=O)C(C)(C)C)C1CCCN(O)C1=O (stereo not drawn),SK-MEL-5,,,,,log GI50,-6.49 log M
